Published values pooled from the literature.
Protocols differ between the studies behind these lines. Several values in a cell are separate wells, animals, samples, runs or records. Numbers after ± are the reported error. In brackets after ≈: the same amount, converted by molar mass.
USP13 ZnF-UBD domain: Ubiquitin carboxyl-terminal hydrolase 13, ZnF-UBD domain (USP13, Homo sapiens, UniProt Q92995)
UniProt Q92995, sequence (whole entry, looked up): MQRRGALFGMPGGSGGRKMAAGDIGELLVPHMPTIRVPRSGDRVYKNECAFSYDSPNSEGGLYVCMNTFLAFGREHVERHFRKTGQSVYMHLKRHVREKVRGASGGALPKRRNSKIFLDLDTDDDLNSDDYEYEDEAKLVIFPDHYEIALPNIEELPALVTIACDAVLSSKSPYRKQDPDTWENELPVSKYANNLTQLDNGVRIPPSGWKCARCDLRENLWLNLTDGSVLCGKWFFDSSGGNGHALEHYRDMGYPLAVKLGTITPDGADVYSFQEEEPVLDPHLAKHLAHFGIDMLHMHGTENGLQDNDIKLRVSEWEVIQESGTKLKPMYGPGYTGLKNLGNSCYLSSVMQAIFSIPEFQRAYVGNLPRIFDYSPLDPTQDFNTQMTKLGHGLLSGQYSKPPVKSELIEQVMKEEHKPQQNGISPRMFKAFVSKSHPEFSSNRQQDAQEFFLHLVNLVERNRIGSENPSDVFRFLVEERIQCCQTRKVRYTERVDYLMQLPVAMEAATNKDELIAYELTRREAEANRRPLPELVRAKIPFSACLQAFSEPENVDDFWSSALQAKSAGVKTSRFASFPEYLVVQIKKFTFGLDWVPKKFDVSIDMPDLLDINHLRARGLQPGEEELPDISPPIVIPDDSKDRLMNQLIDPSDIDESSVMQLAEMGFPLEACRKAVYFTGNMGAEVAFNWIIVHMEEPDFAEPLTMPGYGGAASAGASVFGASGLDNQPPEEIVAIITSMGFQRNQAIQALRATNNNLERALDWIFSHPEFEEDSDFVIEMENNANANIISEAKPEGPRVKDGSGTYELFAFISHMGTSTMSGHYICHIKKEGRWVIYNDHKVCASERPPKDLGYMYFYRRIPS
UniProt O14965, sequence (whole entry, looked up): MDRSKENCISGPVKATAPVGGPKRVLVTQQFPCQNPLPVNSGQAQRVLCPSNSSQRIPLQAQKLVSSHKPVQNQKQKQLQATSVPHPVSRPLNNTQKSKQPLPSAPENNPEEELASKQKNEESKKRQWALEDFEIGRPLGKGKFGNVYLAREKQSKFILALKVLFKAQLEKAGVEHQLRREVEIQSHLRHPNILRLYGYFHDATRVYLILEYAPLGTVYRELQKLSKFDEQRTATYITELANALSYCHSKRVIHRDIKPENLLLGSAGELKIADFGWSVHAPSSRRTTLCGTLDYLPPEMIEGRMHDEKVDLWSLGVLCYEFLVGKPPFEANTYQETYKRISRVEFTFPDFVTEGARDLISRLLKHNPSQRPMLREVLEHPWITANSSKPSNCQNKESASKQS

CCn1cc(-c2cc(Cn3ccoc3=N)cc3c2CCN([C@@H](C)c2cc(OC)ccn2)C3=O)c(C(F)(F)F)n1  EC50 (RERF-LC-AI; cell growth, inhibitor; 120 h): 1.5 µM
c1coc(-c2n[nH]cc2-c2ccnc3ccccc23)c1  log2 fold change (RIO2 (Candida albicans); kinase binding, MIB/MS competition; Candida albicans lysate; 10 µM; baseline: DMSO): -0.15
CC1=NN(c2cccc(C)c2)C(=O)C1=NNc1ccc(S(N)(=O)=O)cc1  glucose uptake (Saccharomyces cerevisiae; 10 µg/mL): 36.679 ± 0.0011%
CCOc1ccccc1OCCN[C@H](C)Cc1ccc(OC)c(S(N)(=O)=O)c1  Vmax (H+/organic cation antiporter; cell uptake; hCMEC/D3): 795 pmol/min/mg protein
CCn1cc(-c2cc(Cn3ccnc3)cc3c2CCN([C@H](c2cc(OC)ccn2)C2CC2)C3=O)c(C(F)(F)F)n1  EC50 (HEC-50B; cell growth, inhibitor; 120 h): > 30 µM
NC(=O)C1(N2CCCCC2)CCN(CCCC(=O)c2ccc(F)cc2)CC1  Km (H+/organic cation antiporter; cell uptake; hCMEC/D3): 76.6 µM
Cn1cc(-c2ccc(-c3cncc(Cl)c3N3CCC4(CCNC4=O)CC3)cc2)cn1  fold change in expression (COLO 205; microarray, item: CD55; concentration not given, 6 h, gene set DAF; baseline: untreated cells): 1.56
O=C(/C=C/C=C/C=C/C1CCCCC1)NC1=C[C@@](O)(/C=C/C=C/C=C/C(=O)NC2=C(O)CCC2=O)[C@@H]2O[C@@H]2C1=O  GI50 (KP-4; cell growth, CellTiter-Glo; 78 h): 25.5 µM
CC1=NN(c2ccc(F)cc2)C(=O)C1=NNc1ccc(S(N)(=O)=O)cc1  glucose uptake (Saccharomyces cerevisiae; 50 µg/mL): 33.6%
c1ccc(-c2n[nH]cc2-c2ccnc3ccccc23)nc1  log2 fold change (kinase binding, competitor, MIB/MS competition, item: MKK2; Candida albicans cell lysate; 100 nM; baseline: DMSO): 1.66
CN[C@H](CC(C)C)C(=O)N[C@H]1C(=O)N[C@@H](CC(N)=O)C(=O)N[C@H]2C(=O)N[C@H]3C(=O)N[C@H](C(=O)N[C@H](C(=O)O)c4cc(O)cc(O)c4-c4cc3ccc4O)[C@H](O)c3ccc(c(Cl)c3)Oc3cc2cc(c3O[C@@H]2O[C@H](CO)[C@@H](O)[C@H](O)[C@H]2O[C@H]2C[C@](C)(N)[C@H](O)[C@H](C)O2)Oc2ccc(cc2Cl)[C@H]1O  MIC50 (Staphylococcus epidermidis; methicillin-resistant, 10 isolates; serum 0%): 2 µg/mL (≈ 1.38 µM)
O=C(O)CNC(=O)Cc1ccccc1  sarcomere length (ventricular cardiomyocytes, C57BL/6 mouse; dose not given, 0.836 s): 1.64 µm
NC(=O)c1cnc2[nH]ccc2c1N[C@@H]1[C@@H]2CC3C[C@H]1C[C@@](O)(C3)C2  total memory T-cell change (flow cytometry; Japanese healthy men, blood; oral, 10 mg twice daily, 72 h after day 7 dose; baseline: baseline): 1.7%
CC1=NN(c2ccc(C)cc2)C(=O)C1=NNc1ccc(S(N)(=O)=O)cc1  glucose uptake (Saccharomyces cerevisiae; 50 µg/mL): 56.6%
CCN(CC)CC(=O)Nc1c(C)cccc1C  Km (H+/organic cation antiporter; cell uptake; hCMEC/D3): 218 µM
OC(CCN1CCCCC1)(c1ccccc1)C1CC2C=CC1C2 (centres unmarked)  change, beta power, EEG O1-Pz (resting-state EEG; healthy elderly humans; oral, 4 mg, eyes closed, LS mean; baseline: baseline): -12.2%
COc1cnc2cccc(N3CCc4c(cc(Cn5ccnc5C)cc4-c4cn(C)nc4C(F)(F)F)C3=O)c2c1  EC50 (NCI-H2228; cell growth, inhibitor; 120 h): > 30 µM
O=C1CC2(CCCC2)CC(=O)N1CCCCN1CCN(c2ncccn2)CC1  Km (H+/organic cation antiporter; cell uptake; hCMEC/D3): 15.4 µM
CC1=NN(c2ccc(Cl)cc2)C(=O)C1=NNc1ccc(S(N)(=O)=O)cc1  glucose uptake (Saccharomyces cerevisiae; 10 µg/mL): 27.372 ± 0.000913%
Oc1ccccc1-c1n[nH]cc1-c1ccnc2ccccc12  log2 fold change (CDC7 (Candida albicans); kinase binding, MIB/MS competition; Candida albicans lysate; 10 µM; baseline: DMSO): 0.44
CC[C@@H]1[C@H](F)C(=O)N[C@@H]1COc1nccc2cc(C(N)=O)c(OC)cc12  IC50 (Aurora kinase A (AURKA, Homo sapiens, UniProt O14965); ATP-site binding, ActivX KiNativ profiling; THP-1 cell lysate; Lys1 AurA probe site): 3.4 µM
O=C(O)CSc1nnc(NC(=O)COc2ccccc2)s1  Kd (USP13 ZnF-UBD domain): 745 µM
O=C(O[C@H]1CN2CCC1CC2)N1CCc2ccccc2[C@@H]1c1ccccc1  Vmax (H+/organic cation antiporter; cell uptake; hCMEC/D3): 1810 pmol/min/mg protein
CC(=O)NC[C@H]1CN(c2ccc(N3CCOCC3)c(F)c2)C(=O)O1  MIC50 (Streptococcus pyogenes; 10 isolates; serum 0%): 0.5 µg/mL (≈ 1.48 µM)
O=C(O)CCc1nc2ccccc2c2nc(Cc3ccccc3)nn12  Kd (USP13 ZnF-UBD domain): > 1000 µM
CC[S+]([O-])c1nc(-c2ccccc2)cc(C(F)(F)F)n1 (centres unmarked)  cells with nuclear reporter (importin alpha/beta-1; cMyc nuclear import, high content imaging; HeLa Kyoto reporter; 0.158 µM, 2 h): 90% and 81.3% and 78.1% and 78.8%
